Published values gathered from unrelated publications.
Each line is one published result; not all experiments were run side by side. “And” joins repeats or separate records; there may be more than shown.
Cell line: MDA-MB-231

CC[C@H](C)/C=C/C=C/C=C/C(O)=C/C(=O)C(F)(Cl)Cl  IC50 (cell growth, CellTiter-Glo): 15.8 µM
CCCCCC(=O)Oc1c(C)c(OC)c2c(/C=C/c3ccccc3)c(CCCC)c(=O)oc2c1C  IC50 (cell growth or viability, SRB; 72 h): > 50 µM
CCOC(=O)/C=C1\S/C(=N\N=C\c2cccc3cc4ccccc4nc23)N(c2ccc(OC)cc2)C1=O  IC50 (cell growth or viability, MTT; 48 h): > 50 µM
CC(=O)[O][Pd][c]1cc(C)ccc1N1N=C(C)C(C)(C)C1=O.CC(=O)[O][Pd][c]1cc(C)ccc1N1N=C(C)C(C)(C)C1=O  IC50 (cell growth or viability, MTT): 92.7 µM
CC(=O)N[C@@H](CCCNC(=N)N)C(=O)N[C@@H](Cc1c[nH]c2ccccc12)C(=O)N[C@@H](CCCNC(=N)N)C(=O)N[C@@H](Cc1c[nH]c2ccccc12)C(=O)N[C@@H](CCCNC(=N)N)C(=O)N[C@@H](Cc1c[nH]c2ccccc12)C(N)=O  IC50 (cell viability; 48 h, light irradiation 2.5 min): > 100 µM
CC(C)CN1C(=O)CS/C1=N\N=C\c1cccc2cc3ccccc3nc12  IC50 (cell growth or viability, MTT; 48 h): > 50 µM
C#CCNC(=O)[C@@]1(C)C(=O)CC[C@]2(C)[C@H]3C(=O)C=C4[C@@H]5[C@@H](C)[C@H](C)CC[C@]5(C)CC[C@@]4(C)[C@]3(C)CC[C@@H]12  IC50 (cell growth or viability, MTT; 24 h): 115 µM
CCCc1cc2cc(-n3nc(C)c4c3CC(C)(C)C(C)C4=O)cc(N3CCC(O)CC3)c2c(=O)[nH]1 (racemic)  IC50 (cell growth or viability, MTS): 14.4 µM
COc1cc(S(=O)(=O)Oc2ccc3[nH]c(C)cc3c2F)cc(OC)c1OC  IC50 (cell growth or viability, fluorescence; 5 days): 0.00779 µM
CNC(=S)NN=Cc1ccc([N+](=O)[O-])o1  IC50 (cell growth or viability, resazurin): 46.8 µM
O=C(CN1CCCCC1)N1CCN(CC(OCc2ccc3ccccc3c2)c2ccc(Cl)cc2Cl)CC1 (centres unmarked)  IC50 (cell growth or viability, MTT; 24 h): 8.08 µM
CCCc1cc2cc(-n3nc(C4CCC4)c4c3CC(C)(C)CC4=O)cc(N3CCC(O)CC3)c2c(=O)[nH]1  IC50 (cell growth or viability, MTS): 7.68 µM
Clc1ccc(C(Cn2ccnc2)OCc2ccc3ccccc3c2)c(Cl)c1 (centres unmarked)  IC50 (cell growth or viability, MTT; 24 h): 39.8 µM
CC[C@H](C)/C=C/C=C/C(O)=C/C(=O)C(F)(F)F  IC50 (cell growth, CellTiter-Glo): 79.1 µM and 94.4 µM
CC(C)(C)OC(=O)N1CCN(CC(OCc2ccc(Br)cc2)c2ccc(Cl)cc2Cl)CC1 (centres unmarked)  IC50 (cell growth or viability, MTT; 24 h): 26.2 µM
COc1cccc(CNC[C@](O)(COCc2ccccc2)[C@@H]2CC[C@@H](C)C[C@H]2OCc2ccccc2)c1  IC50 (cell growth or viability, MTT; 72 h): 1.89 µM
O=C(c1ccccc1Cl)N1CCN(CC(OCc2ccc3ccccc3c2)c2ccc(Cl)cc2Cl)CC1 (centres unmarked)  IC50 (cell growth or viability, MTT; 24 h): 47.7 µM
COc1c(C)c(OS(=O)(=O)c2ccccc2)c(C)c(OS(=O)(=O)c2ccccc2)c1C(=O)/C=C/c1ccccc1  IC50 (cell growth or viability, SRB; 72 h): > 50 µM
COc1ccc(CNC[C@](O)(COCc2ccccc2)[C@@H]2CC[C@@H](C)C[C@H]2OCc2ccccc2)cc1  IC50 (cell growth or viability, MTT; 72 h): 3.21 µM
CNS(=O)(=O)Nc1nccc(Cc2c(C)c3ccc(Oc4ncccc4F)cc3oc2=O)c1F  IC50 (cell viability; 7 days): 0.144 µM

A few entries again:
CC[C@H](C)/C=C/C=C/C(O)=C/C(=O)C(F)(F)F  IC50 (cell growth, CellTiter-Glo): 79.1 µM and 94.4 µM
CC(C)(C)OC(=O)N1CCN(CC(OCc2ccc(Br)cc2)c2ccc(Cl)cc2Cl)CC1 (centres unmarked)  IC50 (cell growth or viability, MTT; 24 h): 26.2 µM
